Assay results collected from several papers.
Compare with care: the assays were run in different laboratories. ± marks the error that the study gave.

| Substance | assay | system | setting | half-life [h] |
| --- | --- | --- | --- | --- |
| NC(=O)c1cnc2[nH]ccc2c1NC1C2CC3CC1CC(OS(=O)(=O)O)(C3)C2 (stereo not drawn) | – | Japanese adults, moderate hepatic impairment, plasma | oral, 150 mg single dose | 12.2 |
| COc1cc(C=CC(=O)OCC2OC(OC3C(c4c(OC)cc5oc(-c6ccc(O)cc6)cc(=O)c5c4O)OC(CO)C(O)C3O)C(O)C(O)C2O)ccc1O (stereo not drawn) | – | male Sprague-Dawley rat, PCPA-induced insomnia, plasma | oral, 6.8 g/kg | 1.39 ± 0.48 |
| COc1c(O)cccc1-c1n[nH]c(SCc2ccccn2)n1 | – | Sprague-Dawley rat, male and female, plasma | oral, 100 mg/kg of parent drug | 0.69 |
| COC(=O)/C=C/C(=O)c1ccc(OC)cc1 | – | Sprague-Dawley rat, both sexes, plasma | oral, 100 mg/kg | 7.17 ± 0.56 |
| COc1cccc(-c2n[nH]c([S+]([O-])Cc3ccccn3)n2)c1OC (stereo not drawn) | – | Sprague-Dawley rat, male and female, plasma | oral, 100 mg/kg of parent drug | 2.56 to 3.05 |
| CN[C@@H]1[C@H](O)[C@H](NC)[C@H]2O[C@]3(O)[C@H](O[C@@H]2[C@H]1O)O[C@H](C)C[C@@]3(O)CNCc1ccc(Cl)cc1 | – | rat | intravenous, 10 mg/kg | 1.74 |
| Cc1ccc(OCC(=O)N(Cc2cccs2)c2ccn[nH]2)cc1 | – | Sprague-Dawley rat, both sexes, plasma | intravenous, 1 mg/kg | 0.25 to 0.3 |
| CC1(C)C2CCC1(C)C(OC(=O)/C=C/c1ccc(O)c(O)c1)C2 (stereo not drawn) | – | Sprague-Dawley rat, plasma | oral, 30 mg/kg, /2α1 | 0.17 ± 0.04 |
| Ac-CSNLSTCXLGRLSQDLHRLQTYPKTDVGANAP-NH2 (N-acetyl, C-amide) | ELISA | peptide, high-fat diet Sprague Dawley rats, plasma | subcutaneous, 4 nmol/kg | 0.44 ± 0.1 |
| CC(C)CNC(=O)/C=C/CCc1ccc2c(c1)OCO2 | – | rat, sham-operated, plasma | oral, 50 mg/kg | 3.92 ± 1.87 |
| Cc1noc(C)c1Cn1cc(N2C(=O)CN(Cc3cccc(OS(=O)(=O)O)c3)C2=O)cn1 | – | rat Sprague-Dawley male, plasma | oral, 10 mg/kg of parent drug | 2.9 |
| COC(=O)C(Cc1c[nH]cn1)NC(=O)C1(C)C(O)CCC2(C)C1CCC1(C)C2CC=C2C3C(C)C(C)CCC3(C)CCC21C (stereo not drawn) | – | rat, fecal matter in phosphate buffer | 12 h, 37 °C | 12.1 |
| Cc1noc(C)c1Cn1cc(N2C(=O)CN(Cc3cccc(O[C@@H]4O[C@H](C(=O)O)[C@@H](O)[C@H](O)[C@H]4O)c3)C2=O)cn1 | – | rat Sprague-Dawley male, plasma | oral, 100 mg/kg of parent drug | 4.2 |
| CCCCOc1nc(N)c2[nH]c(=O)n(CCCN(CCCN3CCOCC3)Cc3cccc(CC(=O)OC)c3)c2n1 | – | rat, whole blood | in vitro | 0.00333 |
| CCC(CC)[C@H](NC(C)=O)[C@@H]1[C@H](O)[C@@H](C(=O)N[C@H](C(=O)O)[C@@H](C)CC)C[C@H]1NC(=N)N | – | male Sprague-Dawley rats, rat intestinal fluid | 100 µg/mL, pH 6.6, 37 °C | 9.4 ± 0.1 |
| CC(C)C[C@@H]1NC(=O)[C@H](C(C)C)NC(=O)[C@H](CC(N)=O)NC(=O)[C@H](CO)NC(=O)[C@H](CO)NC(=O)[C@H](CC(=O)O)NC(=O)[C@H](CC(=O)O)NC(=O)[C@H](Cc2ccccc2)NC(=O)[C@H](Cc2ccc(O)cc2)NC(=O)[C@@H](N)CSSC[C@@H](C(=O)N[C@@H](CCCCN)C(=O)N[C@@H](CCCCN)C(=O)N[C@@H](Cc2ccc(O)cc2)C(=O)N[C@@H](CCCNC(=N)N)C(=O)N[C@@H](CO)C(=O)O)NC1=O | – | Sprague-Dawley rat, male, plasma | 0.1 mg/mL, 37 °C, in vitro stability | 5.97 |
| CCC(CC)[C@H](NC(C)=O)[C@@H]1[C@H](O)[C@@H](C(=O)OCCOC(=O)[C@@H](N)C(C)C)C[C@H]1NC(=N)N | – | male Sprague-Dawley rats, rat gastric fluid | 80 µg/mL, pH 1.3, 37 °C | 3.38 ± 0.25 |
| CCCCCCCCCCCCCCCC(=O)NCCOCCOCCOCCOCCOCCOCCOCCOCCC(=O)NCCCC[C@H](NC(=O)CNC(=O)[C@@H]1CSSC[C@H](N)C(=O)N[C@@H](Cc2ccc(O)cc2)C(=O)N[C@@H]([C@@H](C)CC)C(=O)N[C@@H](CCC(N)=O)C(=O)N[C@@H](CC(N)=O)C(=O)N1)C(=O)NCC(N)=O | – | male Wistar Hannover rat, plasma | intravenous bolus, 0.1 mg/kg | 8.5 |
| N[C@@H](COc1ccccc1C(F)(F)F)c1ccccc1 | – | male Sprague-Dawley rat | oral, 25 mg/kg | 5.3 |
| COc1cc2oc(-c3ccc(O)cc3)cc(=O)c2c(O)c1[C@@H]1O[C@H](CO)[C@@H](O)[C@H](O)[C@H]1O[C@@H]1O[C@H](CO)[C@@H](O)[C@H](O)[C@H]1O | – | male Sprague-Dawley rat, normal, plasma | oral, 6.8 g/kg | 3.01 ± 0.9 |
| CN(Cc1ccc(/C=C/C(=O)Nc2ccccc2N)cc1)CC12CC3CC(CC(C3)C1)C2 | LC-MS/MS | rat, brain | 1 mg/kg | 6.8 |

Some of these lines once more:
| Substance | assay | system | setting | half-life [h] |
| --- | --- | --- | --- | --- |
| COc1cc2oc(-c3ccc(O)cc3)cc(=O)c2c(O)c1[C@@H]1O[C@H](CO)[C@@H](O)[C@H](O)[C@H]1O[C@@H]1O[C@H](CO)[C@@H](O)[C@H](O)[C@H]1O | – | male Sprague-Dawley rat, normal, plasma | oral, 6.8 g/kg | 3.01 ± 0.9 |
